Results gathered from unrelated publications.
Every numbered part comes from another study and shows a few of its results, in no order.
Sequence of UniProt Q15303 (whole entry, looked up): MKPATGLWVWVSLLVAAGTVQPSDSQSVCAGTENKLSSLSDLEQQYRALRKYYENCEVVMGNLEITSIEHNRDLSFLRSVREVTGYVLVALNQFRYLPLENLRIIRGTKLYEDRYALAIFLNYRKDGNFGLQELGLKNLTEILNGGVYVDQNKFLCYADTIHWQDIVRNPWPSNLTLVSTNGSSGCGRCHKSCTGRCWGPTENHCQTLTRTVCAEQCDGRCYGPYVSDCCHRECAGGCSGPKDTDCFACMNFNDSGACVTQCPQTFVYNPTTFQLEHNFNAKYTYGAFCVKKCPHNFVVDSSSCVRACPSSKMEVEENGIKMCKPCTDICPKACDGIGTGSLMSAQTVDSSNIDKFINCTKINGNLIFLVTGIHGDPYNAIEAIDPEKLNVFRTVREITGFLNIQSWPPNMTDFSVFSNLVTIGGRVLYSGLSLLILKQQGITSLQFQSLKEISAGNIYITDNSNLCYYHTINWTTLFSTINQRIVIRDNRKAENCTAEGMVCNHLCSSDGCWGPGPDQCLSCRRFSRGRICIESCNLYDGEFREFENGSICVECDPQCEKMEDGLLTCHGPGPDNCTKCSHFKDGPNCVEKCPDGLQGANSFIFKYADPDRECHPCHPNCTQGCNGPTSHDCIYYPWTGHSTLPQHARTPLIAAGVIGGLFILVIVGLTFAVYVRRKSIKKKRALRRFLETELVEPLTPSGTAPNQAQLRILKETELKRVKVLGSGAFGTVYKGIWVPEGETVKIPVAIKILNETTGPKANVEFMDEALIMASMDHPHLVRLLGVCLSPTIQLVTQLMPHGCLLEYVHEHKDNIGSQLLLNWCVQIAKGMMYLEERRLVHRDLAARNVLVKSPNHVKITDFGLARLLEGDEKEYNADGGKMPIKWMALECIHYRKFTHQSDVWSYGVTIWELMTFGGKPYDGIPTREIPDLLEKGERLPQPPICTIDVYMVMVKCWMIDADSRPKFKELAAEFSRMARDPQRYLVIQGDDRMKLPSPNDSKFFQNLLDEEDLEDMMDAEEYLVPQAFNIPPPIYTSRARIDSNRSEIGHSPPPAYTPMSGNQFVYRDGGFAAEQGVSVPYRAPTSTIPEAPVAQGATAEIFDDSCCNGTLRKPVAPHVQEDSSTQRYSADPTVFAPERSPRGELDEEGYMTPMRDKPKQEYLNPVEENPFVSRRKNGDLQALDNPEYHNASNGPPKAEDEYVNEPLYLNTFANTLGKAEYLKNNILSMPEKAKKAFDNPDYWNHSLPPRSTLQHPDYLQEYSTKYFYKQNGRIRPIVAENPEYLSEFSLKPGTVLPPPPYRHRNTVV
Sequence of UniProt Q8WXR4 (whole entry, looked up): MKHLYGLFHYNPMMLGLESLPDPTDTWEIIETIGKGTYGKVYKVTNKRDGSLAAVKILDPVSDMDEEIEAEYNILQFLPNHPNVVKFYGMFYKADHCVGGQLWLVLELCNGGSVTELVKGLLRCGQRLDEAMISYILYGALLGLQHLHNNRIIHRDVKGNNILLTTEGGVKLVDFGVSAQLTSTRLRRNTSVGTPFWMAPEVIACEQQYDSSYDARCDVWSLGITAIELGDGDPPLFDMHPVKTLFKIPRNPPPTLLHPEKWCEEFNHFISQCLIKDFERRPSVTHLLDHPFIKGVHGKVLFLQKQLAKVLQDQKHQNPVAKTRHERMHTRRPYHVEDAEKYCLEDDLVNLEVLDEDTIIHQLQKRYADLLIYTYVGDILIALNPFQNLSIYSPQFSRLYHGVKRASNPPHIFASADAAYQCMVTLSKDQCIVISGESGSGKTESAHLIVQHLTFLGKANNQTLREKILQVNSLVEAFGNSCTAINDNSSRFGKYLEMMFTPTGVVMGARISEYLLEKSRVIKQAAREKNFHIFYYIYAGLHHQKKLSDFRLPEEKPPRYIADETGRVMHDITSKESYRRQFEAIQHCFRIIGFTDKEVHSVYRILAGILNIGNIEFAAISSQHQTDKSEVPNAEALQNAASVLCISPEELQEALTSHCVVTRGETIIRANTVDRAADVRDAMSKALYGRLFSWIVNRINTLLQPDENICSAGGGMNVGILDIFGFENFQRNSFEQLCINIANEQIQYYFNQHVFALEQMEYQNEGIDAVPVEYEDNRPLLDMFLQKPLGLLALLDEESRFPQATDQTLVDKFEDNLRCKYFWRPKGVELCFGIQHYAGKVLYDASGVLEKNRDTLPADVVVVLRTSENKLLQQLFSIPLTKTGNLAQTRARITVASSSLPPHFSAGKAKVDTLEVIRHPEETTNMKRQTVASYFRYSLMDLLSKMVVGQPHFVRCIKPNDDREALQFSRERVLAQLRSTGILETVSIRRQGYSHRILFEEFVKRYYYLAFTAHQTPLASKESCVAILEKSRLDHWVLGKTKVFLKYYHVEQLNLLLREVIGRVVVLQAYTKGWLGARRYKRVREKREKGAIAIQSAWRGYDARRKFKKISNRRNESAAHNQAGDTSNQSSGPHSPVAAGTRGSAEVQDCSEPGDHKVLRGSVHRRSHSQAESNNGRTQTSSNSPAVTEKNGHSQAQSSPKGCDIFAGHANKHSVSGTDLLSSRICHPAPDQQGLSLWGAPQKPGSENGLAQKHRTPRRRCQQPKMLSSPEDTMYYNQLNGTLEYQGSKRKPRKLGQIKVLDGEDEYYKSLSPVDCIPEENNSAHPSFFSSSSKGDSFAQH
Sequence of UniProt P42680 (whole entry, looked up): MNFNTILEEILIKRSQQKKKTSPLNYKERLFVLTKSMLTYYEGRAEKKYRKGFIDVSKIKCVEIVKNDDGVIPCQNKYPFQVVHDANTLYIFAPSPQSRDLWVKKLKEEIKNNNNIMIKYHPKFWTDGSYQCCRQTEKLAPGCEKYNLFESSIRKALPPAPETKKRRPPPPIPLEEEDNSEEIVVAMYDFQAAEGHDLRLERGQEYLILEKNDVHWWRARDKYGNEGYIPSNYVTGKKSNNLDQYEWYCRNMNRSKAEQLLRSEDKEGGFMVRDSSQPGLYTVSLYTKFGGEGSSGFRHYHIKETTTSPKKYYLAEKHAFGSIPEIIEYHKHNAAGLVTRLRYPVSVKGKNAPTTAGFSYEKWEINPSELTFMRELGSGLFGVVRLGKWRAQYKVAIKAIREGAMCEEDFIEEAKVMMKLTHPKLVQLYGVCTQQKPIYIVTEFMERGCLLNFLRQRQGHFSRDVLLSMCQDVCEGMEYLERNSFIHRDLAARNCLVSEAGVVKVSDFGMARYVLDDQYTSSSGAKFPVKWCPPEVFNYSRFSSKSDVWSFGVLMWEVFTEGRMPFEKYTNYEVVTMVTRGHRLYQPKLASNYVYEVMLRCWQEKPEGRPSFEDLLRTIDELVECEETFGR

Set 1
Target: Tyrosine-protein kinase HCK (HCK, Homo sapiens, UniProt P08631)
Sequence of UniProt P08631 (whole entry, looked up): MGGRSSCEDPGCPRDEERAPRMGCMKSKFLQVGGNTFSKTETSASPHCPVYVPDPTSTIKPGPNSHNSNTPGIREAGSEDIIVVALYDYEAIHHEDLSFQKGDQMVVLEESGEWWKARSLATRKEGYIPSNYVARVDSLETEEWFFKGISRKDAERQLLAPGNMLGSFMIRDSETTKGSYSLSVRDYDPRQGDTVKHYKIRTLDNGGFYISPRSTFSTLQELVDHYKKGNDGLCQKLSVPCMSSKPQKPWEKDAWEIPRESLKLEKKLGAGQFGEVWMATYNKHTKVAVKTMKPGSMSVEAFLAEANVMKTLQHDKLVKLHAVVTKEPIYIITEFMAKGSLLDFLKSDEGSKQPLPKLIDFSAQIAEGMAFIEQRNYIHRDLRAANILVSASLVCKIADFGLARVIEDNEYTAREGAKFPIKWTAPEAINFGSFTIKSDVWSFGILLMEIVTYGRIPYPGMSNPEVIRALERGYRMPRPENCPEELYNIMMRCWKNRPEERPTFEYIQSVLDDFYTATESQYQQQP
Read-out: enzyme activity
Action: inhibitor
Concentration: 0.5 µM
Baseline: control
Compound | remaining activity [%]
CC(C)n1cnc2c(Nc3cccc(Cl)c3)nc(NCCO)nc21 | 78
CCN(CC)CCCCN1c2ccccc2Oc2ccc(Cl)cc21 | 105
CNc1cc2c(Nc3cccc(Br)c3)ncnc2cn1 | 84.5
O=C(c1ccccc1)c1ccc(N2CCOCC2)cc1O | 114
O=C1NC(=O)/C(=C/c2ccc3c(c2)OC(F)(F)O3)S1 | 89.8
CCCCc1c(-c2ccc(O)cc2)[nH]c2nccnc12 | 91.1
FC(F)(F)c1ccc(/C=C/c2nc(COc3ccc(CCCCn4ccnn4)cc3)co2)cc1 | 93.9
CC(C)N(CCC(=O)c1ccc2ccccc2c1)Cc1ccccc1 | 94.9
Nc1nc(Nc2ccc(S(N)(=O)=O)cc2)nn1C(=S)Nc1c(F)cccc1F | 37.9
O=C1c2ccccc2-c2nc3nnnn3nc21 | 84

Set 2
Structure (SMILES): CC(C)(O)c1cncc(-c2nc3ccc(F)cc3n2C2CC2)c1
Concentration: 1 µM
target | test | remaining binding
NEK4 (Homo sapiens, UniProt P51957) | cell-free assay, competition with immobilised ligand | 100%
HIPK3 (Homo sapiens, UniProt Q9H422) | cell-free assay, competition with immobilised ligand | 93%
MKNK1 (Homo sapiens, UniProt Q9BUB5) | cell-free assay, competition with immobilised ligand | 100%
ERBB4 (Homo sapiens, UniProt Q15303) | cell-free assay, competition with immobilised ligand | 100%
SIK1 (Homo sapiens, UniProt P57059) | competition binding | 100%
WNK4 (Homo sapiens, UniProt Q96J92) | cell-free assay, competition with immobilised ligand | 100%
TEC (Homo sapiens, UniProt P42680) | cell-free assay, competition with immobilised ligand | 100%
Myosin-IIIb (MYO3B, Homo sapiens, UniProt Q8WXR4) | binding, competition with immobilised ligand | 71%
Tyrosine-protein kinase JAK3, JH1 (JAK3, Homo sapiens, UniProt P52333) | cell-free assay, competition with immobilised ligand | 100%
CAMK2B (Homo sapiens, UniProt Q13554) | cell-free assay, competition with immobilised ligand | 100%
WEE2 (Homo sapiens, UniProt P0C1S8) | cell-free assay, competition with immobilised ligand | 100%
Tyrosine-protein kinase ABL1, phosphorylated (ABL1, Homo sapiens, UniProt P00519) | cell-free assay, competition with immobilised ligand | 89%
CILK1 (Homo sapiens, UniProt Q9UPZ9) | cell-free assay, competition with immobilised ligand | 100%
INSRR (Homo sapiens, UniProt P14616) | cell-free assay, competition with immobilised ligand | 100%
FLT3 (Homo sapiens, UniProt P36888, ITD) | cell-free assay, competition with immobilised ligand | 100%
RET (Homo sapiens, UniProt P07949, M918T) | cell-free assay, competition with immobilised ligand | 100%
PIK3C3 (Homo sapiens, UniProt Q8NEB9) | cell-free assay, competition with immobilised ligand | 100%

Set 3
Species: human
Medium: microsomes or S9
Concentration: 2 µM
Time: 0.5 h
SMILES | remaining compound
Cn1c(=O)c2c(nc(N3CCCCC3)n2CC/N=C2\CCCN2)n(C)c1=O | 97.7%
CCC(C)c1ccccc1OCCn1cnc2ccccc21 (centres unmarked) | 0.0533%
CCC(C)(C)C1CCC2(CC1)NC(=O)N(CC(=O)N1CCC(N3CCNC3=O)CC1)C2=O (centres unmarked) | 62.6%
Cc1nn(C)c2ncnc(N3CC(C)(C)N(C)C[C@@H]3C)c12 | > 99.9%
Cc1ccc2c(c1C)NC(=O)CC2c1ccc(O)cc1 (centres unmarked) | 70.7%
COc1cc(Nc2ncnc3c2cnn3-c2ccc(C)cc2C)cc(OC)c1OC | > 100%
CC1CC(N(C(=O)Nc2ccc(Cl)c(Cl)c2)c2ccccc2)c2ccccc2N1C(=O)Nc1ccc(Cl)c(Cl)c1 (centres unmarked) | 55.7%
CC(=O)Nc1cc(O)nc2nc(-c3ccc(C(C)(C)C)cc3)nn12 | 62.2%
Cc1c(Br)c2ccccc2n1CC(=O)n1ncc(C#N)c1N | 49%

Set 4
Cell line: mouse MPNST tumor cells
Method: high-content immunofluorescence imaging
Item: nuclear SOX9
Concentration: 10 µM
Time: 12 h
Notes: mean of 2 replicates
Baseline: DMSO control
Reading: higher = more nuclear SOX9
SMILES | nuclear SOX9 intensity
O=C(Oc1nsnc1N1CCCCC1)N1CCOCC1 | 101 % of DMSO
COc1ccc(Br)cc1S(=O)(=O)NC(=O)/C=C/c1ccccc1Cc1ccc2ccccc2c1 | 99.2 % of DMSO
Cn1ccc2cc3c(cc21)CCN3C(=O)Nc1cccnc1 | 88.4 % of DMSO
CNCC(O)c1ccc(OC(=O)C(C)(C)C)c(OC(=O)C(C)(C)C)c1 (centres unmarked) | 123 % of DMSO
COc1c(N2CCNC(C)C2)c(F)cc2c(=O)c(C(=O)O)cn(C3CC3)c12 (centres unmarked) | 96 % of DMSO
CCn1cc(C(=O)O)c(=O)c2cnc(N3CCNCC3)nc21 | 94.5 % of DMSO
O=C(Nc1cccnn1)N1CCC(=Cc2cccc(Oc3ccc(C(F)(F)F)cn3)c2)CC1 | 142 % of DMSO
CCc1cc(-c2n[nH]c(C)c2-c2ccc3c(c2)OCCO3)c(O)cc1O | 49.1 % of DMSO

For quick reference, copied from above (set 2):
target | test | remaining binding
SIK1 (Homo sapiens, UniProt P57059) | competition binding | 100%
CILK1 (Homo sapiens, UniProt Q9UPZ9) | cell-free assay, competition with immobilised ligand | 100%
PIK3C3 (Homo sapiens, UniProt Q8NEB9) | cell-free assay, competition with immobilised ligand | 100%
CAMK2B (Homo sapiens, UniProt Q13554) | cell-free assay, competition with immobilised ligand | 100%
FLT3 (Homo sapiens, UniProt P36888, ITD) | cell-free assay, competition with immobilised ligand | 100%
